Measured values gathered from unrelated publications.
Compare with care: the assays were run in different laboratories.
Target: Mitogen-activated protein kinase 11 (MAPK11, Homo sapiens, UniProt Q15759)
Chain of UniProt Q15759 (whole entry, looked up): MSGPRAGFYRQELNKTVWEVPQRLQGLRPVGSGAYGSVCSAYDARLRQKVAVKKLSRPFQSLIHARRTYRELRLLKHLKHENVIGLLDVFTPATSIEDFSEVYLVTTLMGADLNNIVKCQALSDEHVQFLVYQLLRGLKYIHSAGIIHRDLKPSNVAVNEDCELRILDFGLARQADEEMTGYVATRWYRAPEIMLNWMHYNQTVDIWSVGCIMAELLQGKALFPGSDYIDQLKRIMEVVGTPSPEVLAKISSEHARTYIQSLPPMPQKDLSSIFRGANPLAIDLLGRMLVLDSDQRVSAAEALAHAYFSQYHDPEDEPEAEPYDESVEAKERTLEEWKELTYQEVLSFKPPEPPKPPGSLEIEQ

The remaining activity of c1cnc2ccc(Nc3nc(NC4CC4)c4nc[nH]c4n3)cc2c1 is reported as 92% (kinase activity, inhibitor, SelectScreen kinase profiling; 1 µM; reference: control).
With [2H]c1cc(C)c(NC(=O)c2cnc(Nc3cc(N4CCC(O)CC4)nc(C)n3)s2)c(Cl)c1 the inhibition was under 50% (0.001 µM).
For COc1cc(N2CCN(C)CC2)ccc1Nc1nc(N)n(C(=S)NCc2c(Cl)cccc2Cl)n1, the remaining activity was 3.4% (enzyme activity; 10 µM; reference: control).
The remaining activity of O=C1NC(=O)/C(=C/c2ccc(-c3ccc(F)cc3O)o2)S1 is reported as 74% (enzyme activity; 10 µM).
For [2H]c1cc(C)c(NC(=O)c2cnc(Nc3cc(N4CCCCC4)nc(C)n3)s2)c(Cl)c1, the inhibition was under 30% (0.01 µM).
The remaining activity of COc1cc(F)ccc1-c1ncnc(Nc2cccc(C[S@](C)(=N)=O)c2)n1 is reported as 105% (kinase activity; 10 µM, added: 10 µM ATP).
Cc1cc(C)nc(NC(=S)N2CCN(Cc3ccc(C(F)(F)F)cc3)CC2)c1: kinase activity “no effect” (inhibitor, ADP-Glo; concentration not given).
COc1cc(-c2cncc3c2CN(C)Cc2cc(N4CCNCC4)ccc2-3)cc(OC)c1OC gave a remaining activity of 92% (kinase activity; 1 µM, human enzyme, added: ATP 10 µM; reference: DMSO control).
With Cc1cc(Nc2cc(N3CCN(C)CC3)nc(Sc3ccc(NC(=O)C4CC4)cc3)n2)[nH]n1 the remaining activity was 93% (kinase activity, KinaseProfiler; 0.03 µM, species human; reference: control).

A few entries again:
For [2H]c1cc(C)c(NC(=O)c2cnc(Nc3cc(N4CCCCC4)nc(C)n3)s2)c(Cl)c1, the inhibition was under 30% (0.01 µM).
